Measurements pooled from the literature.
Each numbered part is a random draw from the data of one study; scales do not carry over between parts. Several values in a cell are separate wells, animals, samples, runs or records.
Chain of UniProt P32298 (whole entry, looked up): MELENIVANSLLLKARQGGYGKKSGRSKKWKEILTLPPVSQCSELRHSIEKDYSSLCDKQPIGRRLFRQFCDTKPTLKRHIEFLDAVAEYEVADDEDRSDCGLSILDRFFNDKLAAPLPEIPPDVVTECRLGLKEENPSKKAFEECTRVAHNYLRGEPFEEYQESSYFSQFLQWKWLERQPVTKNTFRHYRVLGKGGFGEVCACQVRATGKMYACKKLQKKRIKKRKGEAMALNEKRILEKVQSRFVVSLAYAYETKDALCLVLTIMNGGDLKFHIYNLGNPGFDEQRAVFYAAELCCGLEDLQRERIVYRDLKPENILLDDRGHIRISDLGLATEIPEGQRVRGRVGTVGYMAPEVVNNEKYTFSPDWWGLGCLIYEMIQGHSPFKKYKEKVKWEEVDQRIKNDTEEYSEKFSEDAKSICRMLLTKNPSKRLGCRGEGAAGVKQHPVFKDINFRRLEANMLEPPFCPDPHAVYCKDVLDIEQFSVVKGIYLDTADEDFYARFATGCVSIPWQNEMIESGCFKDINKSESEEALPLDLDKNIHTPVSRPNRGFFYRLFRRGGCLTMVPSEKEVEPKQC
Chain of UniProt Q8N4C8 (whole entry, looked up): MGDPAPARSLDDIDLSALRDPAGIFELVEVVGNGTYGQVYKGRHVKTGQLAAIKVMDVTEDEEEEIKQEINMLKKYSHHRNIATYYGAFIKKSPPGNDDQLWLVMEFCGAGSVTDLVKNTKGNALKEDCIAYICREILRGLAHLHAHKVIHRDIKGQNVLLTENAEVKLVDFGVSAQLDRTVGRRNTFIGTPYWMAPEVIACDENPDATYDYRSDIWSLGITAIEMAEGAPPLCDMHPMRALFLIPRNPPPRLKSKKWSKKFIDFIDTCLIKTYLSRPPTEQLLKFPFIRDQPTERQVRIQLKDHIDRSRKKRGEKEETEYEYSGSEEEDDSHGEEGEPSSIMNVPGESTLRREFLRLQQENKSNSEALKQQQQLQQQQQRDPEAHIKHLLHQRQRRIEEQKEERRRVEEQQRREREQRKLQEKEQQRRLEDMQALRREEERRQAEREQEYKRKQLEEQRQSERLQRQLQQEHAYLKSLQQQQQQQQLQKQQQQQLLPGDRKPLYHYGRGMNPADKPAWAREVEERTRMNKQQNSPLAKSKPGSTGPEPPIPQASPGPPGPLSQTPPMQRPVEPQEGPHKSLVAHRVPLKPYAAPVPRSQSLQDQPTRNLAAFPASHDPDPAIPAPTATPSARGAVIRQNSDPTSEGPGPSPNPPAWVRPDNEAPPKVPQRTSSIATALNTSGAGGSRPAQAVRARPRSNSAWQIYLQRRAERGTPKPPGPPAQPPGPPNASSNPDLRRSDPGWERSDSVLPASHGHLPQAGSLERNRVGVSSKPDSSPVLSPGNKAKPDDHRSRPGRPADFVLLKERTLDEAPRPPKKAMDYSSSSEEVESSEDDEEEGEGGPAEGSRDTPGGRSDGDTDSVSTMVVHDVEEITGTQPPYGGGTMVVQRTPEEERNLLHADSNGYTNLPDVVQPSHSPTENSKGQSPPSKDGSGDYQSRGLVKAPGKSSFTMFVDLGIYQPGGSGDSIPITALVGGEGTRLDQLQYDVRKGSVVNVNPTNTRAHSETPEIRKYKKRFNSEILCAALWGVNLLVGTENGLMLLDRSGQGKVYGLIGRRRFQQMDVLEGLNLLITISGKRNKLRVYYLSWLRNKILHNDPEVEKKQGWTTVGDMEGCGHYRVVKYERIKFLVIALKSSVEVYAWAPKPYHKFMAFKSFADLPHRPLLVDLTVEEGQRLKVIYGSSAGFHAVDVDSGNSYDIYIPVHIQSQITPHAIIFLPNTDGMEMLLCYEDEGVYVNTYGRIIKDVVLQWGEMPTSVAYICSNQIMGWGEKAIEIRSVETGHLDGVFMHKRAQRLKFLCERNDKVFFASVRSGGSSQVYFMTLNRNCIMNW
Chain of UniProt P42681 (whole entry, looked up): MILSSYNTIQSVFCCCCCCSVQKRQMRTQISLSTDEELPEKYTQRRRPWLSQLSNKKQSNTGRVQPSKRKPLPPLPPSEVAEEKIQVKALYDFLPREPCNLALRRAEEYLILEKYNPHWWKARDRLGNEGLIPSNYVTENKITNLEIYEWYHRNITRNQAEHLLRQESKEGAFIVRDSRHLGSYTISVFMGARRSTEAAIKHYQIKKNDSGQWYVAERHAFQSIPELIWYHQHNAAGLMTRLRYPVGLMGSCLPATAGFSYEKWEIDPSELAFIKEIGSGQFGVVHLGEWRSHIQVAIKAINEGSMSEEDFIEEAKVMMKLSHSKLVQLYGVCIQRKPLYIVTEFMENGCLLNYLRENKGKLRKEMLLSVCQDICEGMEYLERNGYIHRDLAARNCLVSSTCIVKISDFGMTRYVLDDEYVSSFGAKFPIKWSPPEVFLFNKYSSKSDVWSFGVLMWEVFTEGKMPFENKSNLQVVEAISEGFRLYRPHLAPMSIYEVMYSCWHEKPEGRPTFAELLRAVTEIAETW
Chain of UniProt Q13976 (whole entry, looked up): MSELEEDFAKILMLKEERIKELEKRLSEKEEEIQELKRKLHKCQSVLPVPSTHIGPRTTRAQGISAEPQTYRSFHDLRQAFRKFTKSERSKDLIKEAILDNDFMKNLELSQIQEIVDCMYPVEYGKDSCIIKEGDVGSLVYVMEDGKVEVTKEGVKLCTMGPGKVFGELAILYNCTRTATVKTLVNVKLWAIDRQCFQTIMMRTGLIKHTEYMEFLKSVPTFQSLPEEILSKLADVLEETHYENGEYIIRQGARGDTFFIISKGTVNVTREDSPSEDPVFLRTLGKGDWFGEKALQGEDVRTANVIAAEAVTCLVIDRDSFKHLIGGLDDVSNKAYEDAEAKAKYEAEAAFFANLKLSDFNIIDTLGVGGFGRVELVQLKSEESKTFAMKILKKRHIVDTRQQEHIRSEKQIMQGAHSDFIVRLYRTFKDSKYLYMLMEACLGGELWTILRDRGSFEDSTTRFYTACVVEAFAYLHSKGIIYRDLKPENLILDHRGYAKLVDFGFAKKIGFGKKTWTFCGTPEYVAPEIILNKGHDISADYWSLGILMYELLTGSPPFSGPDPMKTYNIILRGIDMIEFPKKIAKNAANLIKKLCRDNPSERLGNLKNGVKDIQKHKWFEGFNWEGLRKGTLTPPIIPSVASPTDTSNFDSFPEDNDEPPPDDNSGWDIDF
Chain of UniProt Q9H3Y6 (whole entry, looked up): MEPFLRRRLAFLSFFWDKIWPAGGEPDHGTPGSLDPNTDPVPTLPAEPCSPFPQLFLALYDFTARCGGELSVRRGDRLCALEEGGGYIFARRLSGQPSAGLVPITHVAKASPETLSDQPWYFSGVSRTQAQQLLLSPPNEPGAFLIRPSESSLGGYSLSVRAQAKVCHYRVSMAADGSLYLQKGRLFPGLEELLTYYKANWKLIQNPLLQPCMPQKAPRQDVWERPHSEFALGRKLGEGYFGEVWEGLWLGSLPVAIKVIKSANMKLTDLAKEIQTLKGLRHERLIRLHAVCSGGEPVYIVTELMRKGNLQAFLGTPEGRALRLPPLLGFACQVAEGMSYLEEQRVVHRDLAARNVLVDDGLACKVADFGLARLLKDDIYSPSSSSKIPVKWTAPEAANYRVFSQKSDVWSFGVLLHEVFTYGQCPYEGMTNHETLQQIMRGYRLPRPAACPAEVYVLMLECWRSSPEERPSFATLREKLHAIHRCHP
Chain of UniProt P22455 (whole entry, looked up): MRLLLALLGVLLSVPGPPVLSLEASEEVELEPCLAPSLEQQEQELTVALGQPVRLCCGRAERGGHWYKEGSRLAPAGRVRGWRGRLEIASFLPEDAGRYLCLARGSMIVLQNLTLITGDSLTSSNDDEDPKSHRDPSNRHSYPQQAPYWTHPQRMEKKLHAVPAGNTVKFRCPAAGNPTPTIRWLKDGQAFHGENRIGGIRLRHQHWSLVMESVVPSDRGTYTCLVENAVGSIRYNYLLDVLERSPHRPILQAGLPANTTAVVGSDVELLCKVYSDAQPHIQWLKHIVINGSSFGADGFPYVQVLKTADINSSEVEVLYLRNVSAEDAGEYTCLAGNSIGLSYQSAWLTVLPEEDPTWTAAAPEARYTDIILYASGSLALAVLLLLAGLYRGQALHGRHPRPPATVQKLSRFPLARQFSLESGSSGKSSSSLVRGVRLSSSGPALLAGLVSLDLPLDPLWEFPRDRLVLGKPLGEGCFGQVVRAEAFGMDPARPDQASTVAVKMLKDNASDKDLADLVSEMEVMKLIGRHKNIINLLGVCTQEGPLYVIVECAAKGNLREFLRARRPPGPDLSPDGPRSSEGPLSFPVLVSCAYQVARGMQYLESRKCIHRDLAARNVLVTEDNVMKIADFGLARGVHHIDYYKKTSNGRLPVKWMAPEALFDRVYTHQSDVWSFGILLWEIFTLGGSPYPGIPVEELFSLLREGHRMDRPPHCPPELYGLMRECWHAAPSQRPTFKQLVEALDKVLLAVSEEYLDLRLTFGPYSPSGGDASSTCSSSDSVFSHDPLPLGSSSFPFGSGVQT
Chain of UniProt Q05655 (whole entry, looked up): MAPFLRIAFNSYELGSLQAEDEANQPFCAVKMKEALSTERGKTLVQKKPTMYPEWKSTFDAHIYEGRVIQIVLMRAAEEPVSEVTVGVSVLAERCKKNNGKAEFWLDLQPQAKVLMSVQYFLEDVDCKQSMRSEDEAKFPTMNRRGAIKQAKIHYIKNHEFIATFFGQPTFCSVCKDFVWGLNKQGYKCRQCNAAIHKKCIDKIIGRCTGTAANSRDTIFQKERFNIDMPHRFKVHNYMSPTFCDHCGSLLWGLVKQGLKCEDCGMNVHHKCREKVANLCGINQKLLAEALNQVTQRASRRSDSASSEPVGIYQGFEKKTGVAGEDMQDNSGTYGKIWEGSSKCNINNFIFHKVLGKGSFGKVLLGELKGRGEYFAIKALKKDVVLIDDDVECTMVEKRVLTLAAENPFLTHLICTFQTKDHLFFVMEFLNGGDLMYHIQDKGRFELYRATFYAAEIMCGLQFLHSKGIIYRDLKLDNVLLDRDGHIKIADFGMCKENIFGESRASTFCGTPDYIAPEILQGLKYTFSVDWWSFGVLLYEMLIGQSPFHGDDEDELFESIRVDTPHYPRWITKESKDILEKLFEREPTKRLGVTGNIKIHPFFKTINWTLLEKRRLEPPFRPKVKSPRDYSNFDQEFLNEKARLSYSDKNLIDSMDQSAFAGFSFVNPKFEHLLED

Sample 1
Structure (SMILES): CN1CCN(c2ccc3nc(-c4c(N)c5c(F)cccc5[nH]c4=O)[nH]c3c2)CC1
Read-out: enzyme activity
Mode: inhibitor
Tested at: 0.5 µM
Reference: control
| target | remaining activity [%] |
| --- | --- |
| MAP/microtubule affinity-regulating kinase 4 (MARK4, Homo sapiens, UniProt Q96L34) | 25.5 |
| Rho-associated protein kinase 1 (ROCK1, Homo sapiens, UniProt Q13464) | 100 |
| Calcium/calmodulin-dependent protein kinase type 1B (PNCK, Homo sapiens, UniProt Q6P2M8) | 104 |
| Ribosomal protein S6 kinase alpha-4 (RPS6KA4, Homo sapiens, UniProt O75676) | 72.1 |
| Serine/threonine-protein kinase DCLK2 (DCLK2, Homo sapiens, UniProt Q8N568) | 94.1 |
| Cyclin-dependent kinase 9, with cyclin K (CDK9, Homo sapiens, UniProt P50750) | 91.1 |
| Hepatocyte growth factor receptor (MET, Homo sapiens, UniProt P08581) | 84.4 |
| Tyrosine-protein kinase TXK (TXK, Homo sapiens, UniProt P42681) | 75.1 |
| Mitogen-activated protein kinase 11 (MAPK11, Homo sapiens, UniProt Q15759) | 104 |
| Serine/threonine-protein kinase Nek3 (NEK3, Homo sapiens, UniProt P51956) | 88.2 |
| Serine/threonine-protein kinase MRCK beta (CDC42BPB, Homo sapiens, UniProt Q9Y5S2) | 99.2 |
| Misshapen-like kinase 1 (MINK1, Homo sapiens, UniProt Q8N4C8) | 1.65 |
| G protein-coupled receptor kinase 4 (GRK4, Homo sapiens, UniProt P32298) | 94.2 |

Sample 2
Compound: CC(=O)N[C@@H](Cc1c[nH]c2ccccc12)C(=O)N[C@@H](CCC(=O)C=[N+]=[N-])C(=O)OC(C)C
| test system | conditions | tumour volume |
| --- | --- | --- |
| CES1-/- mice, OVA-expressing MC-38 tumour | dose not given, day 14 after injection | 0 mm3 and 84 mm3 and 144 mm3 and 26 mm3 and 235 mm3 and 63 mm3 |
| mouse, EL4 tumour | subcutaneous, 1 mg/kg, day 10 | 315 mm3 and 248 mm3 and 460 mm3 and 318 mm3 and 141 mm3 and 47.8 mm3 |
| C57BL/6 CES1-/- mouse, EL4 tumour | intravenous, 1 mg/kg DON equivalent, treatment day 9, 5 days per week | 593 mm3 and 246 mm3 and 528 mm3 and 783 mm3 and 626 mm3 and 282 mm3 and 342 mm3 and 516 mm3 |
| C57BL/6 CES1-/- mouse, EL4 tumour | intravenous, 1 mg/kg DON equivalent, treatment day 18, 5 days per week | 0 mm3 |
| mice, MC-38 tumour rechallenge | 0.26 mg/kg, day 53 after injection | 0 mm3 |

Sample 3
SMILES: Cc1c(NC(=O)c2cc(C(N)=O)nc3cc(F)ccc23)c(C(F)(F)F)nn1Cc1ccc(C(C)(C)C)cc1
Read-out: cell-free assay
Technique: competition with immobilised ligand
Tested at: 1 µM
| target | remaining binding [%] |
| --- | --- |
| Homeodomain-interacting protein kinase 2 (HIPK2, Homo sapiens, UniProt Q9H2X6) | 100 |
| Serine/threonine-protein kinase Nek11 (NEK11, Homo sapiens, UniProt Q8NG66) | 100 |
| Uncharacterized serine/threonine-protein kinase SBK3 (SBK3, Homo sapiens, UniProt P0C264) | 100 |
| Fibroblast growth factor receptor 4 (FGFR4, Homo sapiens, UniProt P22455) | 100 |
| Serine/threonine-protein kinase BRSK1 (BRSK1, Homo sapiens, UniProt Q8TDC3) | 100 |
| cGMP-dependent protein kinase 1 (PRKG1, Homo sapiens, UniProt Q13976) | 99 |
| Mitogen-activated protein kinase kinase kinase 11 (MAP3K11, Homo sapiens, UniProt Q16584) | 100 |
| Tyrosine-protein kinase Srms (SRMS, Homo sapiens, UniProt Q9H3Y6) | 100 |
| Cytoplasmic tyrosine-protein kinase BMX (BMX, Homo sapiens, UniProt P51813) | 88 |
| Protein kinase C delta type (PRKCD, Homo sapiens, UniProt Q05655) | 100 |

Further values, each from its own experiment
| Compound | target | test | test system | conditions | measurement | result |
| --- | --- | --- | --- | --- | --- | --- |
| CC(C)S(=O)(=O)c1ccc2nccc(Nc3ccc4scnc4c3)c2c1 | Receptor-interacting serine/threonine-protein kinase 3 (Ripk3, Mus musculus, UniProt Q9QZL0, C111A) | dimerization, size-exclusion chromatography | mouse kinase domain | concentration not given | SEC elution volume | 14.9 mL |
